Assay results pooled from the literature.
Lines come from different studies, so protocols differ.

Compound	host	matrix	route	dose	setting	measurement	result
C[C@@](O)(C(F)F)[C@H](NC(=O)c1ccc(C#CC#CC2CC2)cc1)C(=O)NO	mouse	plasma	intravenous	40 mg/kg		AUC(0-inf)	24.8 µg·h/mL
CC(C)[C@H]1NC(=O)C[C@H]2/C=C/CCSSC[C@@H](NC1=O)C(=O)N[C@H](Cc1cccc3ccccc13)C(=O)NCC(=O)O2	nude mouse	blood	oral	12 mg/kg		AUC(0-inf)	0.000557 µg·h/mL
CCCCCCCC(=O)NC[C@H](NC(=O)[C@H](CO)NC(=O)CN)C(=O)N[C@@H](Cc1ccccc1)C(=O)N[C@@H](CC(C)C)C(=O)N[C@@H](CO)C(=O)N1CCC[C@H]1C(=O)N[C@@H](CCC(=O)O)C(=O)N[C@@H](Cc1c[nH]cn1)C(=O)N[C@@H](CCC(N)=O)C(=O)N[C@@H](CCCNC(=N)N)C(=O)N[C@H](C(=O)N[C@@H](CCC(N)=O)C(=O)N[C@H](C(=O)N[C@@H](CCCNC(=N)N)C(=O)N1CCC[C@H]1C(=O)N1CCC[C@H]1C(=O)N[C@@H](Cc1c[nH]cn1)C(=O)N[C@@H](CCCCN)C(=O)N[C@@H](C)C(=O)N1CCC[C@H]1C(=O)N[C@@H](Cc1c[nH]cn1)C(=O)N[C@H](C(=O)N[C@H](C(=O)O)C(C)C)C(C)C)C(C)C)C(C)C	mouse	plasma	intraperitoneal	1.2 mg/kg		AUC(0-inf)	0.0104 µg·h/mL
CS(C)(=O)=Nc1ccc(-c2ccc(-c3nc4cc(O[C@@H]5CO[C@H]6[C@@H]5OC[C@H]6O)[nH]c4cc3F)cc2)cc1	female C57BL/6 mouse	plasma	oral	10 mg/kg		AUC	8.06 µg·h/mL
O=C(CN1CCN(c2cc3c(cc2F)c(=O)c(C(=O)O)cn3C2CC2)CC1)Nc1ccc(Cl)cc1	mouse	plasma	intravenous	3.75 mg/kg		AUC	100 µg·h/mL
CCCC[C@@H]1NC(=O)[C@H](Cc2ccc(O)cc2)NC(=O)[C@@H]2CCCN2C(=O)[C@H](CC(=O)O)NC(=O)[C@H](C)NC(=O)[C@H](Cc2ccccc2)NC(=O)[C@@H]2CSCCC(=O)N3CN(CN(C3)C(=O)CCSC[C@@H](C(=O)N[C@@H](C)C(N)=O)NC1=O)C(=O)CCSC[C@H](NC(C)=O)C(=O)N[C@@H](CC(C)(C)C)C(=O)N1CCC[C@H]1C(=O)N[C@@H](CCC(=O)O)C(=O)N[C@H](CCCCNC(=O)CCc1cn(CCOCCOCCOCCN(CCOCCOCCOCCC(=O)N[C@H]3CSCCC(=O)N4CN5CN(C4)C(=O)CCSC[C@H](NC(=O)[C@@H](CC(=O)O)NC(=O)[C@H](Cc4cccc6ccccc46)NC(=O)[C@@H]4CCCN4C3=O)C(=O)N[C@@H](CCSC)C(=O)N[C@@H](CCCCNC(=N)N)C(=O)N[C@@H](CC(=O)O)C(=O)N[C@@H](Cc3c[nH]c4ccccc34)C(=O)N[C@@H](CO)C(=O)N[C@@H]([C@@H](C)O)C(=O)N3CCC[C@H]3C(=O)N3C[C@H](O)C[C@H]3C(=O)N[C@@H](Cc3c[nH]c4ccccc34)C(=O)N[C@H](C(N)=O)CSCCC5=O)CCOCCOCCOCCn3cc(CCC(=O)NCCCC[C@H]4NC(=O)[C@H](CCC(=O)O)NC(=O)[C@@H]5CCCN5C(=O)[C@H](CC(C)(C)C)NC(=O)[C@@H](NC(C)=O)CSCCC(=O)N5CN6CN(C5)C(=O)CCSC[C@H](NC(=O)[C@H](Cc5ccc(O)cc5)NC(=O)[C@@H]5CCCN5C4=O)C(=O)N[C@@H](Cc4ccccc4)C(=O)N[C@@H](C)C(=O)N[C@@H](CC(=O)O)C(=O)N4CCC[C@H]4C(=O)N[C@@H](Cc4ccc(O)cc4)C(=O)N[C@@H](CCCC)C(=O)N[C@H](C(=O)N[C@@H](C)C(N)=O)CSCCC6=O)nn3)nn1)C(=O)N1CCC[C@H]1C(=O)N[C@@H](Cc1ccc(O)cc1)C(=O)N2	mouse	plasma	intraperitoneal	15 mg/kg		AUC(0-inf)	2020 nM·h
O=c1cc(-c2ccccc2)oc2c(Br)c(O)c(O)c(O)c12	C57BL/6 mouse	plasma	oral	150 mg/kg	single dose	AUC(0-inf)	8.26 µg·h/mL
NC1CCN(C(=O)OC2CCCC3(C2)OOC2(O3)C3CC4CC(C3)CC2C4)CC1 (stereo not drawn)	mouse	plasma	oral	50 mg/kg	single dose	AUC(0-t)	3.43 µg·h/mL
CC(C)(CCCC/C=C/CCCCCC(C)(C)C(=O)O)C(=O)O	CD-1 mouse	plasma	intravenous	10 mg/kg		AUC(0-t)	138 µg·h/mL

Excerpt of the above:
Compound	host	matrix	route	dose	setting	measurement	result
O=C(CN1CCN(c2cc3c(cc2F)c(=O)c(C(=O)O)cn3C2CC2)CC1)Nc1ccc(Cl)cc1	mouse	plasma	intravenous	3.75 mg/kg		AUC	100 µg·h/mL
